Published values collected from several papers.
Compare with care: the assays were run in different laboratories. ± gives the spread as reported.
Cell line: HeLa

For `CO[C@@H]1[C@@H](O[C@@H]2O[C@H](C)[C@@H](O[C@H]3C[C@@](C)(O)[C@@H](OC(=O)/C=C/c4ccc(C(F)(F)F)cc4)[C@H](C)O3)[C@H](N(C)C)[C@H]2O)[C@@H](CC=O)C[C@@H](C)[C@@H](O[C@H]2CC[C@H](N(C)C)[C@@H](C)O2)/C=C/C=C/C[C@@H](C)OC(=O)C[C@H]1O`, the IC50 was 1.3 µM (cell growth or viability, CCK-8; 72 h).
The IC50 of `Nc1ccn(CC(=O)N[C@@H](Cc2ccccc2)C(=O)N[C@@H](Cc2ccccc2)C(=O)O)c(=O)n1` is reported as > 500 µM.
With `Brc1cccc(CNc2nc(NCc3ccccc3)c3ccccc3n2)c1` the IC50 was 12 ± 3 µM (ODD-Luc degradation; p97-independent substrate).
The IC50 of `COC(=O)[C@H](C(C)C)N(C)C(=O)[C@@H]1CCCN1C(=O)[C@H](C)N(C)C(=O)OC(C)(C)C` is reported as 22 µM (cell growth or viability, SRB).
With `COc1cc(OC)c(-c2coc3c4c(c(OC)cc3c2=O)OC(C)(C)C=C4)cc1OC` the IC50 was 14.8 µM (cell growth or viability, MTT; 72 h).
For `C#CCN(CC(=O)O[C@H]1[C@H](C)O[C@@H](O[C@H]2[C@H](N(C)C)[C@@H](O)[C@H](O[C@H]3[C@@H](CC=O)C[C@@H](C)[C@@H](O[C@H]4CC[C@H](N(C)C)[C@@H](C)O4)/C=C/C=C/C[C@@H](C)OC(=O)C[C@@H](O)[C@@H]3OC)O[C@@H]2C)C[C@@]1(C)O)Cc1ccc(C(F)(F)F)cc1`, the IC50 was 2.16 µM (cell growth or viability, CCK-8; 72 h).
For `COc1cc(CN2CCN(c3ccc([N+](=O)[O-])cc3)CC2)c2cc3[n+](cc2c1O)CCc1cc2c(cc1-3)OCO2`, the IC50 was 5.95 µg/mL (cell growth or viability, SRB; 48 h).
For `C[C@]12CC/C(=N/O)C=C1CCC1C2CC[C@]2(C)/C(=C/c3ccccn3)CCC12` (stereo partly drawn), the IC50 was > 100 µM (cell growth or viability, MTT; 72 h).
`F[P-](F)(F)(F)(F)F.O=C(CCC(=O)[c-]1cccc1)NCCN(CC(=O)Nc1ccc(C#CCN(Cc2ccccn2)Cc2ccccn2)cc1)C(=O)CCc1cn(Cc2ccccc2)nn1.[C-]#[O+].[C-]#[O+].[C-]#[O+].[C-]#[O+].[C-]#[O+].[C-]#[O+].[Mn+].[Re+]` gave an IC50 of 8 µM (cell growth or viability, resazurin; 48 h).
The IC50 of `COc1ccccc1CNC[C@](O)(COCc1ccccc1)[C@@H]1CC[C@@H](C)C[C@H]1OCc1ccccc1` is reported as 2.1 µM (cell growth or viability, MTT; 72 h).
For `CC(C)(C(=O)O)C1(O)c2ccccc2-c2ccccc21`, the IC50 was 99.1 µM (cell growth or viability; 72 h).
The IC50 of `O=C(Cc1ccc2ccccc2c1)N[C@H](Cc1ccccc1)C(=O)N[C@H](Cc1ccc(OP(=O)(O)O)cc1)C(=O)N[C@H](Cc1ccccc1)C(=O)N[C@H](Cc1ccc(OP(=O)(O)O)cc1)C(=O)O` is reported as 217 µg/mL (cell growth or viability, MTT).
The IC50 of `Cc1c(C(=O)NNC(=O)Nc2ccc(Cl)cc2)nnn1Cc1nc2ccccc2[nH]1` is reported as 46.2 ± 2.7 µM (48 h).
The IC50 of `COc1ccc(CNC[C@@](O)(COCc2ccc(F)cc2)[C@@H]2CC[C@@H](C)C[C@H]2OCc2ccc(F)cc2)cc1` is reported as 1.6 µM (cell growth or viability, MTT; 72 h).
For `Nc1nc2c(ncn2CC(=O)N[C@@H](Cc2ccccc2)C(=O)N[C@@H](Cc2ccccc2)C(=O)O)c(=O)[nH]1`, the IC50 was > 500 µM.
For `COc1ccc(-c2noc(NC(=O)c3ccc(F)c(C(F)(F)F)c3)c2C#N)c(OC)c1`, the IC50 was 2.06 µM (cell growth or viability, MTT; 72 h).
With `CC(C)(C)c1cc2c(O)c(c1)Cc1cc(C(C)(C)C)cc(c1OCC(=O)Nc1cccc3cccnc13)Cc1cc(C(C)(C)C)cc(c1O)Cc1cc(C(C)(C)C)cc(c1OCC(=O)Nc1cccc3cccnc13)COC2` the IC50 was 7.3 µM (cell growth or viability, MTT; 72 h).
`[Cl][Cu][Cl].c1ccc(-c2nnc(-c3ccc4c(c3)OCO4)[nH]2)nc1` gave an IC50 of 5.23 µM (cell growth or viability, MTT; 24 h).
The IC50 of `Cc1ccccc1CNC(=O)Cc1ccc(-c2ccc(OCCN3CCOCC3)cc2)cn1` is reported as 2.2 µM (cell growth or viability, CCK-8; 48 h).
With `Cc1ccc2c(Cl)cc(Cl)c([O-])c2n1.Cc1ccc2c(Cl)cc(Cl)c([O-])c2n1.[Co+2].c1ccc2nc3c4cccnc4c4ncccc4c3nc2c1` the IC50 was 0.0008 µM (cell growth or viability, MTT; 48 h).
With `C=C1C(=O)O[C@@H]2/C=C(\C)CC/C=C(/C(=O)OC)C[C@@H](OC(=O)/C(C)=C\C)[C@@H]12` the IC50 was 9.92 µM (cell growth or viability; 48 h).
`CC=C(C)C(=O)OC1C(O)C2(COC(C)=O)C(O)CC3(C)C(=CCC4C5(C)CCC(OC6OC(C(=O)OC)C(OC7OC(CO)C(O)C(O)C7O)C(O)C6OC6OC(CO)C(O)C(O)C6O)C(C)(CO)C5CCC43C)C2CC1(C)C` (stereo not drawn) gave an IC50 of 48.7 µM (cell growth or viability, CCK-8; 48 h).
The IC50 of `COc1cc(F)ccc1-c1ncnc(Nc2cccc(C[S@@](C)(=N)=O)c2)n1` is reported as 1.1 µM (cell growth or viability; 96 h).
`Nc1ccn([C@@H]2O[C@H](CSSc3ccccn3)[C@@H](O)[C@H](F)[C@H]2O)c(=O)n1` gave an IC50 of 369 µM (cell growth or viability).
The IC50 of `CC(C)(C(=O)O)C1(O)CCCCC1` is reported as 128 µM (cell growth or viability; 72 h).
`O=C(c1cc(Cl)c(Cl)[nH]1)c1ccccc1O` gave an IC50 of 13 µg/mL (cell growth or viability, resazurin; 24 h).
With `CCCCCCCC[P+](c1cc(C)cc(C)c1)(c1cc(C)cc(C)c1)c1cc(C)cc(C)c1` the IC50 was 0.32 µM (cell growth or viability, resazurin; 72 h).
`COc1cc2c(cc1OCCCOc1no[n+]([O-])c1S(=O)(=O)c1ccccc1)CCC1C2CCC2(C)C(O)CCC12` (stereo not drawn) has an IC50 of 2.65 µM (cell growth or viability, MTT; 48 h).
With `CCC1=C(CC)C2=[N+]3C1=Cc1c(CC)c(CC)c4[n]1[Ir-3]31([Cl])([C]#[O+])[n]3c(c(CC)c(CC)c3=CC3=[N+]1C(=C4)C(CC)=C3CC)=C2` the IC50 was > 50 µM (cell growth or viability, MTT; 72 h).
With `CN1CCCNC(=O)c2cccc(c2)C(=O)NCCCN(C)CCCNc2cccc3c2C(=O)c2cccc(c2C3=O)NCCC1` the IC50 was 0.3 µM (cell growth or viability, CCK-8; 48 h).
With `CCN(CC)CCO/N=C1/C=C2CCC3C(CC[C@]4(C)/C(=C/c5ccccn5)CCC34)[C@@]2(C)CC1` (stereo partly drawn) the IC50 was > 100 µM (cell growth or viability, MTT; 72 h).
`C[C@@H]1CC[C@@H]([C@@](O)(CNCc2ccc(F)cc2)COCc2ccccc2)[C@H](OCc2ccccc2)C1` has an IC50 of 2.5 µM (cell growth or viability, MTT; 72 h).
For `CCCN1CCN(CC(=O)N2CCN(c3cc(C)nc4ncnn34)CC2)CC1`, the IC50 was 45.7 µM (cell growth or viability, MTT).
`CCCCCCCCCCCCCCCCOc1c(O)cc(C(=O)O[C@@H]2Cc3c(O)cc(O)cc3O[C@@H]2c2cc(O)c(O)c(O)c2)cc1O` gave an IC50 of 105 µM (cell growth or viability, CCK-8; 24 h).
For `COc1cccc(CNC[C@](O)(COCc2ccccc2)[C@@H]2CC[C@@H](C)C[C@H]2OCc2ccccc2)c1`, the IC50 was 1.6 µM (cell growth or viability, MTT; 72 h).
`O=[N+]([O-])c1ccc(C=[N+]2N=C(Nc3ccccc3)[S][Pt-]2([Cl])[Cl])s1` gave an IC50 of 1.7 µM (cell growth or viability).
With `Cc1cccc(CNC(=O)Cc2ccc(-c3ccc(OCCN4CCOCC4)cc3)cn2)c1` the IC50 was 0.97 µM (cell growth or viability, CCK-8; 48 h).
For `CC(=O)OC[C@H]1O[C@@H](NC(=O)NC(=O)/C=C/c2ccc(-c3ccccc3)cc2)[C@H](OC(C)=O)[C@@H](OC(C)=O)[C@@H]1OC(C)=O`, the IC50 was 100 µM (cell growth or viability; 96 h).
With `O=C(NCc1ccccc1)Nc1ccc(-c2ccc(OCCN3CCOCC3)cc2)cn1` the IC50 was 0.78 µM (cell growth or viability, CCK-8; 48 h).
For `CC(C)c1ccc(C[C@H](C)C(=O)NC(=O)N[C@@H]2O[C@H](CO)[C@@H](O)[C@H](O)[C@H]2O)cc1`, the IC50 was > 250 µM (cell growth or viability; 96 h).
The IC50 of `O=[N+]([O-])c1ccc(C=[N+]2N=C(Nc3ccccc3)[S][Pd-]2([Cl])[Cl])s1` is reported as 21 µM (cell growth or viability).
`[Cl][Pd-2]1([Cl])[N+](=Cc2ccc[nH]2)Cc2cccc[n+]21` has an IC50 of 45.5 µg/mL (cell growth or viability, MTT; 24 h).
For `O=C(Cc1ccccc1)NCc1ccc(-c2ccc(OCCN3CCOCC3)cc2)cn1`, the IC50 was 0.97 µM (cell growth or viability, CCK-8; 48 h).
`COC(=O)CNc1cc(C[S+]([O-])c2ccc3ccccc3c2)ccc1OC` (stereo not drawn) has an IC50 of 0.974 µM (cell growth or viability, MTS; 48 h).
For `CCCCCCCCCCOc1c(O)cc(C(=O)O[C@@H]2Cc3c(O)cc(O)cc3O[C@@H]2c2cc(O)c(O)c(O)c2)cc1O`, the IC50 was 112 µM (cell growth or viability, CCK-8; 24 h).
The IC50 of `CC(C)OC(=O)[C@]12CS[C@H](c3ccccc3)N1C(=O)/C(=C(\O)CCc1ccccc1)C2=O` is reported as 15.6 µg/mL (cell growth or viability, resazurin).
`CC(=O)OC[C@H]1O[C@@H](NC(=O)COc2ccc(-c3ccccc3)cc2)[C@H](OC(C)=O)[C@@H](OC(C)=O)[C@@H]1OC(C)=O` gave an IC50 of ≥ 250 µM (cell growth or viability; 96 h).
For `COc1cc(CN2CCN(c3ccc(C(F)(F)F)cc3)CC2)c2cc3[n+](cc2c1O)CCc1cc2c(cc1-3)OCO2`, the IC50 was 4.25 µg/mL (cell growth or viability, SRB; 48 h).
With `Cc1cc(C=O)cc(C)c1Oc1cc(Nc2ccc(C#N)cc2)nc2cnccc12` the IC50 was 13.2 ± 0.7 µM (48 h).
`CO[C@@H]1[C@@H](O[C@@H]2O[C@H](C)[C@@H](O[C@H]3C[C@@](C)(O)[C@@H](OC(=O)CN(C)C)[C@H](C)O3)[C@H](N(C)C)[C@H]2O)[C@@H](CC=O)C[C@@H](C)[C@@H](O[C@H]2CC[C@H](N(C)C)[C@@H](C)O2)/C=C/C=C/C[C@@H](C)OC(=O)C[C@H]1O` has an IC50 of > 50 µM (cell growth or viability, CCK-8; 72 h).
`S=c1n(-c2ccccc2)c2c3ccccc3nc3[n+]2[n]1[Ir-3]12([S]3)([c]3ccccc3-c3sc4ccccc4[n+]31)[c]1ccccc1-c1sc3ccccc3[n+]12` has an IC50 of > 50 µM (cell viability, MTT; dark).

For quick reference, copied from above:
`F[P-](F)(F)(F)(F)F.O=C(CCC(=O)[c-]1cccc1)NCCN(CC(=O)Nc1ccc(C#CCN(Cc2ccccn2)Cc2ccccn2)cc1)C(=O)CCc1cn(Cc2ccccc2)nn1.[C-]#[O+].[C-]#[O+].[C-]#[O+].[C-]#[O+].[C-]#[O+].[C-]#[O+].[Mn+].[Re+]` gave an IC50 of 8 µM (cell growth or viability, resazurin; 48 h).
The IC50 of `COc1ccccc1CNC[C@](O)(COCc1ccccc1)[C@@H]1CC[C@@H](C)C[C@H]1OCc1ccccc1` is reported as 2.1 µM (cell growth or viability, MTT; 72 h).
For `CC(C)(C(=O)O)C1(O)c2ccccc2-c2ccccc21`, the IC50 was 99.1 µM (cell growth or viability; 72 h).
The IC50 of `O=C(Cc1ccc2ccccc2c1)N[C@H](Cc1ccccc1)C(=O)N[C@H](Cc1ccc(OP(=O)(O)O)cc1)C(=O)N[C@H](Cc1ccccc1)C(=O)N[C@H](Cc1ccc(OP(=O)(O)O)cc1)C(=O)O` is reported as 217 µg/mL (cell growth or viability, MTT).
